Measurements of several laboratories.
Every numbered part comes from another study and shows a few of its results, in no order. Changes are numbered by the printed parent chain.

Series 1 — method: protein-binding microarray; form: double-stranded DNA, one strand shown; medium: in vitro; concentration: not given; direction: higher = stronger binding
Target: Transcriptional repressor CTCF (CTCF, Homo sapiens, UniProt P49711, residues 1-727, full length assumed)
UniProt P49711, sequence (whole entry, looked up): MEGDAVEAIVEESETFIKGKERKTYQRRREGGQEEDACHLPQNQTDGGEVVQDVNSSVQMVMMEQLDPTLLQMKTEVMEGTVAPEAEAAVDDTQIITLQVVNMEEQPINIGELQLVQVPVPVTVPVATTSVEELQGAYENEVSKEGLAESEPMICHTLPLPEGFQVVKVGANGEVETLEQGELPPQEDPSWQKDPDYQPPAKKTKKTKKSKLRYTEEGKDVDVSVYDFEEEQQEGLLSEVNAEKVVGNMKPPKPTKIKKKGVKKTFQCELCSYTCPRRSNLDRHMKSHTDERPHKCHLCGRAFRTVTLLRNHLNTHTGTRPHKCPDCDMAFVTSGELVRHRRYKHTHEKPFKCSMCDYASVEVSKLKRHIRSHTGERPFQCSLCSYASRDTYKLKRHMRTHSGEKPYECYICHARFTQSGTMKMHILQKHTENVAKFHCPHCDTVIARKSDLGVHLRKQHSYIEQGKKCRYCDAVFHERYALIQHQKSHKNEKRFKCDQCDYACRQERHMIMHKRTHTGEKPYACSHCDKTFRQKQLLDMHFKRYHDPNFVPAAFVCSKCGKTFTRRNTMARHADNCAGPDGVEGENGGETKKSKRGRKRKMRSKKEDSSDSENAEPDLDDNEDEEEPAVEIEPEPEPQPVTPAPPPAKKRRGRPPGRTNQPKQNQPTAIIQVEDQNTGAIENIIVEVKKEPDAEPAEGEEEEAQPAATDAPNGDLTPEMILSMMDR
Setting: k-mer, scored over probes, only values ≥0.25
Oligonucleotide | E-score
AATTATTA | 0.339
GGTAATAA | 0.279
CAATATAC | 0.369
CGCCCCCC | 0.282
CAATTATA | 0.285
TATATAGA | 0.291
TAGTAAAA | 0.267
CTGCGCCA | 0.327
CGCTAATA | 0.276
AAATATAT | 0.385
GAGGGCGC | 0.338
AGTATACA | 0.264
ACTATATG | 0.259
GATAGCGC | 0.29
TATACAAA | 0.299

Series 2 — method: aptamer microarray, sandwich; form: DNA with 2'F-ANA; medium: in vitro; concentration: 200 nM; with: Cy3 exosite-II aptamer, 400 nM; direction: higher = stronger binding; oligonucleotide: GGTTGGTGTGGTTGG
Target: Prothrombin, mature alpha-thrombin (F2, Homo sapiens, UniProt P00734)
Setting: whole 15-mer aptamer, many near background
Modification | mean fluorescence intensity
2'F-ANA at 5 6 8 10 11 14 | 44.5 a.u.
2'F-ANA at 2 7 8 9 10 11 13 | 113 a.u.
2'F-ANA at 1 2 3 5 6 7 8 10 11 12 15 | 49.5 a.u.
2'F-ANA at 4 6 7 10 11 13 15 | 63.2 a.u.
2'F-ANA at 2 4 5 6 7 9 10 | 55 a.u.
2'F-ANA at 3 4 5 11 13 14 | 49.5 a.u.
2'F-ANA at 1 3 4 6 9 13 14 15 | 87.1 a.u.
2'F-ANA at 5 6 8 9 13 | 85.5 a.u.
2'F-ANA at 1 5 7 8 9 10 14 | 46 a.u.
2'F-ANA at 2 7 11 13 | 430 a.u.
2'F-ANA at 1 3 6 7 9 11 13 | 205 a.u.
2'F-ANA at 2 3 5 6 8 10 11 12 15 | 65.6 a.u.
2'F-ANA at 2 6 8 9 10 12 13 14 | 80.8 a.u.
2'F-ANA at 3 6 7 13 15 | 857 a.u.
2'F-ANA at 3 4 6 7 8 9 14 15 | 246 a.u.
2'F-ANA at 1 3 4 6 7 10 13 | 68.1 a.u.
2'F-ANA at 6 7 8 10 12 13 14 15 | 107 a.u.
2'F-ANA at 2 5 6 8 11 13 14 | 48.2 a.u.
2'F-ANA at 2 3 8 9 11 12 13 15 | 857 a.u.
2'F-ANA at 3 5 6 8 10 11 14 | 51.5 a.u.
2'F-ANA at 1 3 5 7 8 11 13 14 15 | 57.7 a.u.
2'F-ANA at 1 2 5 7 9 13 14 15 | 46.2 a.u.
2'F-ANA at 2 5 9 12 14 15 | 47.7 a.u.
2'F-ANA at 1 2 3 4 5 6 8 9 10 14 | 51.5 a.u.

Series 3 — method: protein binding microarray; form: double-stranded DNA, one strand shown; medium: in vitro; concentration: not given; relative to: not given; direction: higher = stronger binding
Target: Histone acetyltransferase KAT6A, winged helix 2, GST fusion (KAT6A, Homo sapiens, UniProt Q92794, residues 85-181)
Setting: 8-mer, flanks averaged, mean of 2 arrays, mostly near background
Target sequence (chain): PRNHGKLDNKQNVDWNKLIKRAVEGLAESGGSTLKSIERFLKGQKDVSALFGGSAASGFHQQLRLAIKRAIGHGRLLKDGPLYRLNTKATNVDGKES
Oligonucleotide | E-score
ACGTCGTG | -0.0627
AGAAAGCA | 0.121
CATCCGAA | 0.0954
ACGTCTCA | -0.128
ATCAAGGC | 0.0325
CAGTTAGC | -0.0904
AGATGCCG | -0.00877
AGCGCTAA | 0.113
CAGAGGGC | 0.14
CGTTACAA | -0.0123
ATCGCACC | 0.0439
AATGTCGG | -0.0758
CTATGGCC | -0.0485
CCAGTGTA | 0.0571
AGCCTCTA | -0.149
AATGGGAT | -0.185
TATGAGAA | -0.024
ATCCCCAA | -0.0887
CACCCGGG | 0.153
GAACGGAC | -0.045
AGATTTGA | -0.0947
CTCTAATC | -0.0106
CCCGTCCA | -0.00016
GACATAAA | -0.0982
AAGCTAAC | -0.0753

Series 4 — target: CCNB1, cyclin fold, Cln2 fusion (human); method: yeast growth competition, sequencing; medium: yeast; setting: strong parent motif; relative to: not given; direction: higher = stronger binding
Starting sequence: PKMYT1 docking peptide (human); SFEPRNLLSLFED
Variant | normalised enrichment score
SFEPRYLLSLFED [N6Y] | -0.18
SFEPRNLPSLFED [L8P] | -0.166
SFIPRNLLSLFED [E3I] | 1.54
SFEPRNMLSLFED [L7M] | 0.19
SFEPRNLLSLYED [F11Y] | 1.12
SFEPRNLLSIFED [L10I] | 1.49
SFEPRNLLQLFED [S9Q] | 1.21
SFEPRNHLSLFED [L7H] | 0.418
CFEPRNLLSLFED [S1C] | 1.43
SFEPGNLLSLFED [R5G] | 0.573
SFEPRNLLMLFED [S9M] | 0.399
SFEPRNLLSLEED [F11E] | -0.0722
SMEPRNLLSLFED [F2M] | -0.0916
SFEPRNLLSLFEQ [D13Q] | 1.1
SFEPRNLLSKFED [L10K] | -0.259
SFEPRNLLSLHED [F11H] | 0.0364
SFMPRNLLSLFED [E3M] | 2.05
YFEPRNLLSLFED [S1Y] | 1.02
SFEPRNLLSEFED [L10E] | 2.06
SFLPRNLLSLFED [E3L] | 1.28
SFEQRNLLSLFED [P4Q] | 0.878
SFEPRNLLSWFED [L10W] | 1.02
SFEPNNLLSLFED [R5N] | 0.0674
SFEPRNLLELFED [S9E] | 1.3
SFEPRNELSLFED [L7E] | -1.37

Series 5 — method: RNA Bind-n-Seq; form: RNA; medium: in vitro; concentration: 1 µM; setting: whole 134-nt RNA, ends assumed; with: 150 mM KCl; relative to: input library; direction: higher = stronger binding
Target: Ras GTPase-activating protein-binding protein 1, C-terminal RGG region (G3BP1, Homo sapiens, UniProt Q13283)
UniProt Q13283, sequence (whole entry, looked up): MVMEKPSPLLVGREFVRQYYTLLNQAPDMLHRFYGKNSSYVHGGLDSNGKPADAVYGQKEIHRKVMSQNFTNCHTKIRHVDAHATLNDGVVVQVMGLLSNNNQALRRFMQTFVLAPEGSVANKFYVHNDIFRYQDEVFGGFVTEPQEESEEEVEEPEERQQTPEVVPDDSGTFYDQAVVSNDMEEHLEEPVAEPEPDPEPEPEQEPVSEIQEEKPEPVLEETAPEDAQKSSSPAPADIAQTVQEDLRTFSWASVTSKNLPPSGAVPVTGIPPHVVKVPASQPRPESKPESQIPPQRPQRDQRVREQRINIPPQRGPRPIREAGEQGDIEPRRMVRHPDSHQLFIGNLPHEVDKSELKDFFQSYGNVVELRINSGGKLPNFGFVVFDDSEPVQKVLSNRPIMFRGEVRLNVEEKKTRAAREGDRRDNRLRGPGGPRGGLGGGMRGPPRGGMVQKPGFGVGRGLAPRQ
All sequences stand within: GGGAGUUCUACAGUCCGACGAUC … UGGAAUUCUCGGGUGUCAAGG
Oligonucleotide | log2 enrichment
UGGCCCUGGUGGCAUGCGGGGAGGAAGAGGUGGCCUCAUGGAUCGUGGUGGUACCGGUGGAAUGUUCAGAGGUGGCCGUGGUGGAGACAG | 0.377
UCCUGUGCUACACAUCGUAUGUACCGAAUCGGGGAAAAAGGGGUUUUUUUGGGGAGGGGAAAGUAUUAUGUUACGCCGUUCGGAUCUGCA | 1.68
GUCCUGUGCUACACAUCGUAUGUACCGAAUCGGGGAAAAAGGGGAAAGGGGUUUGGGGAAAGUAUUAUGUUACGCCGUUCGGAUCUGCAC | 2.64
AGUCCUGUGCUACACAUCGUAUGUACCGAAUCGGGGCCCCGGCCCCGGGGCCCCGGGGAAAGUAUUAUGUUACGCCGUUCGGAUCUGCAC | -2.53
UGAUCAGCAAAGCCAAGAUGAGCCUUUGAGAAGCAGAAAAGUGUUUGUGGGGCGCUGUACAGAGGACAUGACUGAGGAUGAGCUGCGGGA | -0.512
UGUGCUACACAUCGUAUGUACCGAAUCGGCCCCCCCGGGGCCCCCCCGGGGCCCCCCCGGGGAAAGUAUUAUGUUACGCCGUUCGGAUCU | -2.68
AGUCCUGUGCUACACAUCGUAUGUACCGAAUCGGGAAAAAAAGGGUUUUUGGGAGGGAAAGUAUUAUGUUACGCCGUUCGGAUCUGCACU | 0.302
UCCUGUGCUACACAUCGUAUGUACCGAAUCAAAUUUUUAAAUUUUUAAAUUUUUUUAAAAAAGUAUUAUGUUACGCCGUUCGGAUCUGCA | -1.17
AGUCCUGUGCUACACAUCGUAUGUACCGAAUCAAACCCAAAUUUUUUUAAACCCAAAAAAGUAUUAUGUUACGCCGUUCGGAUCUGCACU | -1.05
UCCUGUGCUACACAUCGUAUGUACCGAAUCGGCCCCCCCGGCCCCCCCGGCCCCCCCGGGAAAGUAUUAUGUUACGCCGUUCGGAUCUGC | -1.51
UGGCCCUGGUGGCAUGCGGGGAGGAAGAGGUGGCCUCAUGGAUCGUGGUGGUCCCGGUGGAAUGUUCAGAGGUGGCCGUGGUGCAGACAG | 1.82
AGUCCUGUGCUACACAUCGUAUGUACCGAAUCGGGAAAAAAAGGGAGGGUUUUUGGGAAAGUAUUAUGUUACGCCGUUCGGAUCUGCACU | 0.833
GCAGGAAUUAAAAACAAAUGGAAAUGCUUCGGAUAGUGGCAGGGGUGGGGGUUGCUAAGGAAAGGGUGGGAUGGGAGUGGGUAAAGAGUU | 1.97
UCCUGUGCUACACAUCGUAUGUACCGAAUCGGGGAGGGGAAAAAGGGGAAAAAAAGGGGAAAGUAUUAUGUUACGCCGUUCGGAUCUGCA | 1.01

Series 6 — method: Spec-seq; form: double-stranded DNA, one strand shown; medium: in vitro; concentration: not given; setting: whole probe, mean of replicates; relative to: not given; direction: lower = stronger binding; all sequences stand within: GAGTCGTCTCGTCAGCAC … CCGTAGAGCACTCAGGTC
Target: POU domain, class 5, transcription factor 1, POU domain (Pou5f1, Mus musculus, UniProt P20263, residues 131-289)
UniProt P20263, sequence (131-289, looked up): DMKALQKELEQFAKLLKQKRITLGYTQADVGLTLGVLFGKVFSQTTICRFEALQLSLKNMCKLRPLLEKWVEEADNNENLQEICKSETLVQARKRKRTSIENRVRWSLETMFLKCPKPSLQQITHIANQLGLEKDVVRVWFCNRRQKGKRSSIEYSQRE
Oligonucleotide | relative binding energy [ln ratio]
AATATAAT | 0.232
ATAGATAT | 0.246
ATTGATAT | -0.00501
ATTAGGAT | 0.261
CAAATAAT | 0.235
ACGTTAAT | 0.0233
AAGTTAAT | 0.207
ATGCATAG | -0.985
TACCTAAT | 0.721
ATAAGTAT | 0.203
ATGCTGCA | 0.553
CGGTTAAT | 0.858
ATGCTTTG | 0.653
ATGCCCAC | 0.612
ATCCTGAT | 0.563
ATGCGTGG | 0.241
ATACCCAT | 0.167
ATGCAGAA | -0.515

Repeated from above (series 2):
Modification | mean fluorescence intensity
2'F-ANA at 3 6 7 13 15 | 857 a.u.
2'F-ANA at 3 4 6 7 8 9 14 15 | 246 a.u.
2'F-ANA at 1 3 4 6 7 10 13 | 68.1 a.u.
2'F-ANA at 6 7 8 10 12 13 14 15 | 107 a.u.
2'F-ANA at 2 5 6 8 11 13 14 | 48.2 a.u.
2'F-ANA at 2 3 8 9 11 12 13 15 | 857 a.u.
2'F-ANA at 3 5 6 8 10 11 14 | 51.5 a.u.
2'F-ANA at 1 3 5 7 8 11 13 14 15 | 57.7 a.u.
2'F-ANA at 1 2 5 7 9 13 14 15 | 46.2 a.u.
